Measured values from different studies.
A part holds a random share of what one study measured. Changes are numbered by the printed parent chain.

Set 1 — target: CCNB1, cyclin fold, Cln2 fusion (human); method: yeast growth competition, sequencing; matrix: yeast; notes: weak parent motif; baseline: not given; reading: higher = stronger binding
Starting sequence: SCAPER docking peptide (human); SNARRSLNFGGST
Variant | normalised enrichment score
A3K | 0.0564
G11A | -0.224
S6P | 0.591
G11F | -0.03
S12I | 0.221
N2Q | 1.01
R4S | -0.16
S6I | 0.401
F9D | 0.472
F9A | 0.131
G11L | -0.141
L7W | 0.164
L7C | 0.0388
A3G | 0.419
S12R | -0.0417
G10V | -0.826
S12W | 0.158
N2G | 0.904

Set 2 — target: NFE2L2, bZIP domain (human); method: DHFR protein complementation; matrix: yeast; baseline: wild-type JUN-FOS pair; reading: higher = stronger binding
Notes: single substitutions, most at no-binding floor
Starting sequence: JUN, bZIP domain (human); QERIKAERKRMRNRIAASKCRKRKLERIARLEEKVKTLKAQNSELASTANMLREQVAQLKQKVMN; partner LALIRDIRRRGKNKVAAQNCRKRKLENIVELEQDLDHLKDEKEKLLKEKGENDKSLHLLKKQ
Variant | binding fitness
L45W | -1.44 natural log
S47K | -1.4 natural log
T48E | -1.37 natural log
K39H | -1.43 natural log
V56E | -1.33 natural log
I28A | -1.42 natural log
S43G | -1.37 natural log
S47P | -1.51 natural log
N42L | -1.4 natural log
T48G | -1.46 natural log
L45N | -1.55 natural log
E32L | -1.44 natural log
L59H | -1.45 natural log
R30T | -1.45 natural log
L38I | -1.52 natural log
A49E | -1.48 natural log
A49Y | -1.54 natural log
L38T | -1.48 natural log
L59R | -1.56 natural log
A46D | -1.52 natural log
N42Q | -1.43 natural log

Set 3 — method: protein-binding microarray; molecule type: double-stranded DNA, one strand shown; matrix: in vitro; concentration: 940 nM top; notes: 60-bp whole probe; together with: salmon DNA 0.4 mg/ml; baseline: random background probes; reading: higher = stronger binding; constant ends, left off below: GCCTAGCAC … GTCTTGATTCGCTTGACGCTGCTG
Target: Interferon regulatory factor 5, full length, phosphomimetic (IRF5, Homo sapiens, UniProt Q13568-2, residues 1-514, S451D/S453D/S456D/S462D)
Strand | fitted relative affinity
AACGGTATCCTTTTCCTGACGTGCTAG | 0.356 z-score
ATCTCACTCTAATCTCACTCTGTGCTA | 2.13 z-score
TCATATCCCTAATCTCAGACTGTGCTA | 1.22 z-score
CATATTCTCTTCTTGCATCTGTGCTAG | 1.88 z-score
CACGGTTTCCTACTGCTGACGTGCTAG | 0.637 z-score
TCACTGCTACCCTTTGAAACTGTGCTA | 0.612 z-score
GACGATTTCAGTCTCCAGACGTGCTAG | 0.58 z-score
TAAATTTTGATGGAGAGTGCGTGCTAG | -0.346 z-score
CACAGTCTGAGATCCAGAAGGTGCTAG | -0.408 z-score
GATGGACTGGGGTTTCGGGACGTGCTA | 1.84 z-score
TTAGAATTGAGTTTCGATTAGTGCTAG | 6.83 z-score
TTAGGACTGCTACTGGTTTAGTGCTAG | -0.738 z-score
GACGGTGTCGACACTGGGGACGTGCTA | -0.0759 z-score
TTTGGACTGGACACTGGGTTAGTGCTA | -0.461 z-score
TTAGGTTTCGGTTCCGGGTAGTGCTAG | 14.3 z-score
GACGGACTGGACAATGGGGACGTGCTA | -0.373 z-score
GACGGTATCCTTTTCCGGACGTGCTAG | 0.647 z-score
TTAGGTCTGGGTCTCGGTTAGTGCTAG | 1.49 z-score

Set 4 — method: RNA Bind-n-Seq; molecule type: RNA; matrix: in vitro; concentration: not given; baseline: input RNA pool; reading: higher = stronger binding
Target: RING finger protein unkempt homolog, zinc fingers 1-6, GST-SBP tag (UNK, Homo sapiens, UniProt Q9C0B0, residues 30-357)
UniProt Q9C0B0, sequence (30-357, looked up): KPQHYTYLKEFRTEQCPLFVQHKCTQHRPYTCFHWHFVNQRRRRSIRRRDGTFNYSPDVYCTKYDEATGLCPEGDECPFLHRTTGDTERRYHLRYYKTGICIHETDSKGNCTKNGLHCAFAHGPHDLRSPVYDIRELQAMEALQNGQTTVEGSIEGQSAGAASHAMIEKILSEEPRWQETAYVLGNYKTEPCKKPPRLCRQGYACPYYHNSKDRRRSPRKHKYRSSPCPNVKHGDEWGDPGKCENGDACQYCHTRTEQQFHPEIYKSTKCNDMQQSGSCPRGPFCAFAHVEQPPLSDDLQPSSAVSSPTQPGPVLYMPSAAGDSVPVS
Notes: RNA with constant flanks, human and mouse sites, ends assumed
Strand | bound/input enrichment [ratio]
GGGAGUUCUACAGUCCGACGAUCAUGCUGACUGGUAAAACCCUUUUUGCAGGUGCACAUGAACUUGAACAGAUGCAGCUGAUUUUAGAAUCUAUUCCUGUUGUACAUGAGGAAGAUCGUCAGGAGCUUCUCAGCGUAAUUCCACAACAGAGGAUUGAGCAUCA | 0.305
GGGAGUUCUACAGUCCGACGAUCAGGUUAACUCUGAGAGCCAUCAAACUGUGGGCCAAACGGCACAACAUCUAUUCCAAUAUAUUAGGUUUCCUCGGUGGUGUUUCCUGGGCUAUGCUAGUAGCAAGAACUUGCCAGCUUUAUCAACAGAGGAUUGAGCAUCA | 0.465
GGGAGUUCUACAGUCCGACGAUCCCCUAAACUGCAUAAUUCUGAAGUUAUAUUUCCUAUACCAUUUCCGUAAUUCUUAUUCCAUAUUAGAAAACUUUGUUAGGCCAAAGACAAAUAGUAGGCAAGAUGGCACAGGGCAUGAAACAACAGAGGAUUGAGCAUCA | 2.83
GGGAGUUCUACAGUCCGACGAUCAAAAUAAAGUUUUGUAGUGGGACCAGAAAUUACUUACCUGACAUCCACCCCCAUUCCCCCUCAUCCUGCUGGGGUUGAAAGUUCCAGACCUGCUGUCGAGGCCUUGUGUUUGUCAGACACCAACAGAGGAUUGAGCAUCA | 0.193
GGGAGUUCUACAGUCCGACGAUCGGGAAGGAGAGCACGGGCUGGACGAACACAAGCUCCACAUGUAUCUUUCUGCCUUGCAGUCCUUGAUCCCAUCUCUCUUUGCAUUAGUGCUACAGAACGCACCUUUCUCCAGCAAAGCCACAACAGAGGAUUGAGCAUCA | 0.154
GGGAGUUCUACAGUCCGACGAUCGCAGCGGGGGCCGCGGGCGGCGGCGGCGGCUCAUGCCCGGCCUGUCCCCGCGAGGGGCGGGCACCGUGACUCGGCUGGGCCCCCAGAGGCGGGCGAUGUGAAGAUGUCAGUGGGCUGUGCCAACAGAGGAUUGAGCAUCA | 1.32
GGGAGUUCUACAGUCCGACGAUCCUUGGGGGCCUAAAGAGACCCCCGUCCUGCCUCCUUUCUUUCUCUGUCUCUUCCUUCCUUUUAGUCUUUUUCAUCCUCUUCUCUUUCCACCAACCCUCCUGCAUCCUUGCCUUGCAGCGUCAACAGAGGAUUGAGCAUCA | 5.37
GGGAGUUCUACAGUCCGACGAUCAACAACUUUCUUCAAACGCUAAAUCAAGCUUGGAAUGAUCAUCAAACAGCUAUGGUGAUGAUUAGAGACAUACUAAUGUACAUGGACCGUGUGUAUGUACAACAAAAUAAUGUGGAGAACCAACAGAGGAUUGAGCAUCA | 0.149
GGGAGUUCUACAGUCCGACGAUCCUCAGCAACAAAAUGCUUCAACAAGUUCCAGAAAACAUAAAUUUUCCUGCUGAAGAAGAGAAAAUCUUGGAGUUUUGGACUGAAUUUAAUUGUUUUCAGGAAUGCUUAAAGCAAUCAAAACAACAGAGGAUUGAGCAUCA | 0.205
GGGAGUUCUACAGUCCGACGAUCAAGCCCUUCUCCCUGGCGCCACGAGGUGCCUUCUUCCAGGAGAUGAGCAGCAGCGAUGUGAGCUCCAAGCUUACGCUCCUCACCUUGCACUUCCCGCGUUUGCGGCUGCUCUGGUGCCCCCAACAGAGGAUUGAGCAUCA | 0.119
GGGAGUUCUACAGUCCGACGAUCCAGACCUUUGUGCCCCUGUGCACAUUUGGAAGCUAAAAUGUACAUCGUUGUCUGAAAAAACCCAACCCCAAAACCUUCAUCUGAUUGGUGAGCUGAAGUCUGUCCUUGCACCAUGUUAUCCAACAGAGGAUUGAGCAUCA | 0.354

Set 5 — method: RNA Bind-n-Seq; molecule type: RNA; matrix: in vitro; concentration: 200 nM; notes: whole 134-nt RNA, ends assumed; together with: 150 mM KCl; baseline: input library; reading: higher = stronger binding
Target: Fragile X messenger ribonucleoprotein 1, C-terminal low-complexity region (Fmr1, Mus musculus, UniProt P35922)
Strand | log2 enrichment
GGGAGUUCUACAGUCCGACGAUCCACAGACAACACGCACCCACACAGACACAGAGGGAAGGGGUUGGGAUGGGGACAGGGUGCACAGCAGGGCGGGGUAAAACCCCAGCCCCUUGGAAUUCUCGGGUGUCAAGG | 1.42
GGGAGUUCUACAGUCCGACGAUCGUGCUACACAUCGUAUGUACCGAAUCGGGGUUUUUUUGGGGUUUUUUUGGGGAAAAAAAGGGGAAAGUAUUAUGUUACGCCGUUCGGAUCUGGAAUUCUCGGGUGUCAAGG | 0.422
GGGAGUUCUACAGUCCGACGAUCUGGGAAGUGGAUUUUGUUUAUUUUUUUAGCUCAUUUCCAGGGGUGGGAAUUUUUUUUUAAUAUGUGUCAUGAAUAAAGUUGUUUUUGAAAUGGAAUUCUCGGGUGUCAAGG | -0.262
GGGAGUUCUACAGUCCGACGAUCAGUCCUGUGCUACACAUCGUAUGUACCGAAUCGGGGAAAGGGGAGGGGAAAAAGGGGAAAGUAUUAUGUUACGCCGUUCGGAUCUGCACUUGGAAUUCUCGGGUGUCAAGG | 0.511
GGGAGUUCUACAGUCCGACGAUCCCUCAAGUCCUGUGCUACACAUCGUAUGUACCGAAUCGGCGGGGCGGCGGGGAAAGUAUUAUGUUACGCCGUUCGGAUCUGCACUUCCAGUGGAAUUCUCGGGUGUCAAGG | 0.379
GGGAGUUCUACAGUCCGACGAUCAGUCCUGUGCUACACAUCGUAUGUACCGAAUCGGGGUUUUUGGGGUUUGGGGAGGGGAAAGUAUUAUGUUACGCCGUUCGGAUCUGCACUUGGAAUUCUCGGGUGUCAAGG | 0.933
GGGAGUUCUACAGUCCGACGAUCAGUCCUGUGCUACACAUCGUAUGUACCGAAUCGGGAAAAAGGGAAAGGGUUUUUGGGAAAGUAUUAUGUUACGCCGUUCGGAUCUGCACUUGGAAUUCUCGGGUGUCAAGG | -0.128
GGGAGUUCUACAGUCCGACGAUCUGGGAGGUGGAUUUUGUUUAUUUUUUUAGCUCAUUUCCAGGGGUGGGAGUUUUUUUUUAAUAUGUGUCAUGAAUAAAGUUGUUUUUGAAAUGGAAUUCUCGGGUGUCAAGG | 0.48
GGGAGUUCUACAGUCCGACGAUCGAUGAUUACUAUGGUUAUGAUUAUCACGACUAUCGUGGAGGCUAUGAAGAUCCCUACUACGGCUAUGAUGAUGGCUAUGCAGUAAGAGGAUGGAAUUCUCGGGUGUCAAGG | -1.55
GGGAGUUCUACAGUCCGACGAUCACCAUGCAGGUGGGCAUCUUUGGGAAGUGGGGCAAGGGGGGGAUAGGGAGGGGGGUAACACAAAGGGAACAGGUGGUCCCAGGUCGUUUCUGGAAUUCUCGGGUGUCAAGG | 0.543
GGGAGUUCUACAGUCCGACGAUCUAACUUUAGAGGAGGAUCUGAUGGAUAUGGCAGUGGACGUGGAUUUGGAGAUGGCUAUAAUGGGUAUGGAGGAGGACCUGGAGGUGGCAAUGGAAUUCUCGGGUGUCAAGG | 0.359
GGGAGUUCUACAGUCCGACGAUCUCAAGUCCUGUGCUACACAUCGUAUGUACCGAAUCGGAAAAAAAGGAGGAAAGGAAAGUAUUAUGUUACGCCGUUCGGAUCUGCACUUCCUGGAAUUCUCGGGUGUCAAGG | -0.752
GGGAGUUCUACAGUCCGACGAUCACCAUGCAGGUGGGCAUCUUUGAGAAGUGGGGCAAGGGGGGGAUAGGGAGGGGGGUAACACUUUGGGAACAGGUGGUCCCAGGUCGUUUCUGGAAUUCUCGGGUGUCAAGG | 0.768
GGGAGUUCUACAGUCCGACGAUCCUGUGCUACACAUCGUAUGUACCGAAUCAAACCCCCCCAAACCCCCCCAAACCCCCCCAAAAAAGUAUUAUGUUACGCCGUUCGGAUCUGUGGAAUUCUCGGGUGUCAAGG | -0.0959

Mixed results
Substance | target | assay | system | conditions | scale | endpoint | result
PhoQ, residues 284 288 289 292 302 303 SMMNNA | PhoP, residues 12 14 15 18 19 SPWRL (Escherichia coli, UniProt P23836) | Sort-seq, refers to: YFP reporter | E. coli | PhoQ-PhoP variant library, together with: 10 µM Mg2+ | baseline: high Mg2+ state, higher = stronger signaling | fold induction | 0.857

Some of these lines once more (set 3):
Strand | fitted relative affinity
TCACTGCTACCCTTTGAAACTGTGCTA | 0.612 z-score
TTAGGTTTCGGTTCCGGGTAGTGCTAG | 14.3 z-score
TTAGGTCTGGGTCTCGGTTAGTGCTAG | 1.49 z-score
GACGGACTGGACAATGGGGACGTGCTA | -0.373 z-score
TTAGGACTGCTACTGGTTTAGTGCTAG | -0.738 z-score
GACGGTGTCGACACTGGGGACGTGCTA | -0.0759 z-score
GACGATTTCAGTCTCCAGACGTGCTAG | 0.58 z-score
AACGGTATCCTTTTCCTGACGTGCTAG | 0.356 z-score
CACGGTTTCCTACTGCTGACGTGCTAG | 0.637 z-score
TTTGGACTGGACACTGGGTTAGTGCTA | -0.461 z-score
